Measurements pooled from the literature.
Each line is one published result; not all experiments were run side by side. Values joined by “and” are separate records of one study, mostly repeats; a detail may differ. ± gives the spread as reported.
T1: DNA hairpin, HEG linker; GTTATATCTTGATATAAC

Oc1c(C(Nc2nc3ccccc3s2)c2cccc(OCc3ccccc3)c2)ccc2cccnc12 (stereo not shown) — kcat (Genome polyprotein, NS2B-NS3 protease (Dengue virus type 2, UniProt P14340); substrate, tetrapeptide cleavage; 5 µM, 37 °C, without ZnCl2): 0.107 ± 0.0041 s⁻¹
COc1ccc(NC(=O)CCCCCCCc2ccccc2)c(C)n1 — specific activity (Carboxylesterase 3 (CES3, Homo sapiens, UniProt Q6UWW8); substrate; 50 µM, pH 8, 37 °C, enzyme purity 3%): 10 pmol/min/µg
COC(=O)CC1N=C(c2ccc(Cl)cc2)c2c(sc(C(=O)NCCCCCNc3cccc4c3C(=O)N(C3CCC(=O)NC3=O)C4=O)c2C)-n2c(C)nnc21 (stereo not shown) — log2 fold change (BRD4 (Homo sapiens, UniProt O60885); degrader, TMT proteomics; MM1.S; 0.1 µM, 4 h; reference: DMSO): -1.99
O=C(O)Cc1cccc(O)c1 — ΔG (p-hydroxyphenylacetate 3-hydroxylase, reductase component (C1-hpah, Acinetobacter baumannii, UniProt Q6Q271); ITC; pH 7): -6.07 ± 0.09 kcal/mol
COC(=O)C1=Cc2ccccc2S1(=O)=O — ubiquitin charging (UBA1 (Homo sapiens, UniProt P22314); 10 µM, 30 min, 37 °C): no effect
CC[C@H](C)[C@@H]1NC(=O)[C@H](Cc2cn(CCc3c(C)[nH]c4cc(Cl)cc(Cl)c34)nn2)NC(=O)[C@@H](CC(N)=O)NC(=O)[C@H](CCCNC(=N)N)NC(=O)[C@H](Cc2ccccc2)NC(=O)[C@@H](CC(C)C)NC(=O)[C@H](C)NC(=O)c2cc3cc(c2)C(=O)NC[C@@H](C(=O)N[C@@H](CCCCN)C(N)=O)NC(=O)[C@H](CCCNC(=N)N)NC(=O)[C@H](CCCNC(=N)N)NC(=O)[C@H](CCCNC(=N)N)NC(=O)[C@H](CCCNC(=N)N)NC(=O)[C@H](Cc2ccc4ccccc4c2)NC(=O)[C@H](Cc2ccccc2)NC(=O)[C@H](CCCCNC3=O)NC(=O)[C@H](CC(=O)O)NC1=O — binding (PIN1 (Homo sapiens, UniProt Q13526); fluorescence anisotropy; concentration not given, with: FITC-labelled peptide 100 nM): no binding
CCCC[C@H](NC(=O)CNC(=O)CNC(=O)CN1CCN(CC(=O)O)CCN(CC(=O)O)CCN(CC(=O)O)CC1)C(=O)N[C@H]1CC(=O)NCCCC[C@@H](C(N)=O)NC(=O)[C@H](Cc2c[nH]c3ccccc23)NC(=O)[C@H](CCCNC(=N)N)NC(=O)[C@@H](Cc2ccccc2)NC(=O)[C@H](Cc2c[nH]cn2)NC1=O [gallium-67 labelled] — tumour uptake reduction (Mc1r (Mus musculus, UniProt Q01727); mouse B16-F1 tumour; dose not given, 2 h, with: NDP-MSH 6.07 nmol): ~96.3%
CC1c2c(F)cccc2CCN1CC(=O)O (stereo not shown) — binding (DUSP3 (Homo sapiens, UniProt P51452); ligand-observed 19F NMR; concentration not given, with: DUSP3 4 or 8 µM): active
O=c1c2ccccc2n(CC2CC2)c(=O)n1O — relative KD (Flap endonuclease 1 (Homo sapiens, UniProt P39748, R100A); substrate binding, fluorescence anisotropy; 100 µM, with: DF1 substrate, Mg2+; reference: Ca2+ condition): 10 fold
CN(C)CCC(=O)N(c1ccc(F)cc1)c1ccc(F)cc1 — EC200 (Proteasome subunit alpha type-2/Proteasome subunit alpha type-6, 20S proteasome (Homo sapiens, UniProt P25787+P60900); proteolysis, activator, fluorogenic peptide; purified 20S proteasome; with: Suc-LLVY-AMC, Z-LLE-AMC, Boc-LRR-AMC): > 30 µM
CC(=O)N1CCC[C@H]1C(=O)N[C@@H](CC(C)C)C(=O)N[C@@H](CO)C(=O)N[C@@H](CC(C)C)C(=O)N[C@@H](CCCNC(=N)N)C(=O)N[C@@H](CO)C(=O)N[C@@H](CCCCN)C(=O)O — hydrolysis product (MMP9 (Homo sapiens, UniProt P14780); substrate, HPLC; 500 µM, 72 h, pH 7.5, 37 °C): 53%
CC[C@H](C)[C@H](NC(=O)[C@@H](NC(=O)[C@H](CCCCN)NC(=O)[C@@H](NC(=O)[C@@H]1CCCN1[C@@H]1CN(C(=O)[C@@H](NC(=O)[C@@H](NC(=O)[C@@H](NC(=O)[C@@H](NC(=O)[C@@H](NC(=O)[C@@H](N)CCCCN)C(C)C)C(C)C)C(C)C)[C@@H](C)CC)[C@@H](C)O)CC[C@H]1NS(=O)(=O)c1ccc(C)cc1)[C@@H](C)O)C(C)C)C(=O)N[C@@H](CC(C)C)C(=O)N[C@@H](Cc1c[nH]cn1)C(N)=O — fibrillization inhibition (IAPP (Homo sapiens, UniProt P10997); inhibitor, ThT fluorescence; 1-fold over protein, pH 7.4, room temperature, with: IAPP 5 µM): inactive
CCc1nc2cc3ccccc3cc2cc1C(=O)N1CCC[C@H]1C(=O)N[C@@H](C/C=C\C[C@H](NC(=O)[C@@H]1CCCN1C(=O)c1cc2cc3ccccc3cc2nc1CC)C(=O)N[C@@H](CCCCN)C(=O)NCCCN)C(=O)N[C@@H](CCCCN)C(=O)NCCCN — residence time ((CAG)10 RNA; SPR): 462 s
CCC1(O)CCCN(C(=O)c2ccc(-c3ccc(F)c(C(N)=O)c3)cc2)C1 (stereo not shown) — signal attenuation (DNA dC->dU-editing enzyme APOBEC-3B, C-terminal domain (Homo sapiens, UniProt Q9UH17); binding, 1H CPMG NMR; 20 µM protein): 43.7% and 44%
NC(=O)CN1C(=O)C(O)(CC(=O)c2cccc(N)c2)c2ccccc21 (stereo not shown) — ΔG (uncharacterized protein (Leishmania donovani, UniProt A0A3Q8IA09); ITC): -8.02 kcal/mol
Cc1cc(N2CC[C@](C#N)(C3(C)CC3)C2=O)cc(C(=O)NCc2cc(F)cc(-c3cnn(C)c3)c2)n1 — melting temperature (Proline--tRNA ligase (Plasmodium falciparum, UniProt Q8I5R7); thermal shift; no substrate): 64.2 °C
CSCC[C@H](NC(=O)[C@H](CCCCN)NC(=O)[C@H](CO)NC(=O)[C@H](CC(C)C)NC(=O)[C@H](Cc1c[nH]cn1)NC(=O)[C@H](CCCNC(=N)N)NC(=O)[C@H](CCC(=O)O)NC(=O)[C@H](CCC(=O)O)NC(=O)[C@@H]1CCCN1C(=O)[C@@H](NC(=O)[C@@H](NC(=O)[C@H](C)NC(=O)[C@H](C)NC(=O)[C@H](CC(=O)O)NC(=O)[C@@H](NC(=O)[C@H](CCC(=O)O)NC(=O)[C@@H](NC(=O)[C@@H](NC(=O)CN)C(C)C)C(C)C)C(C)C)C(C)C)[C@@H](C)OP(=O)(O)O)C(=O)N[C@@H](CCC(N)=O)C(=O)N[C@@H](CCC(N)=O)C(=O)N[C@@H](CC(N)=O)C(=O)NCC(=O)N[C@@H](Cc1ccc(O)cc1)C(=O)O — kon (Peptidyl-prolyl cis-trans isomerase NIMA-interacting 1, WW domain (PIN1, Homo sapiens, UniProt Q13526); binding, NMR lineshape; WW domain; 25 °C, trans isomer): 9.1e+07 M⁻¹ s⁻¹
CC[C@H](C)[C@H](NC(=O)CNC(=O)[C@H](CCCNC(=N)N)NC(=O)[C@H](CCCCN)NC(=O)CNC(=O)[C@H](CC(N)=O)NC(=O)CNC(=O)CNC(=O)CNC(=O)[C@H](CC(C)C)NC(=O)[C@H](C)NC(=O)CNC(=O)[C@H](Cc1c[nH]c2ccccc12)NC(=O)[C@H](Cc1ccc(O)cc1)NC(=O)CNC(=O)[C@H](CCCNC(=N)N)NC(=O)[C@H](CCSC)NC(=O)CNC(=O)[C@H](CCCCN)NC(=O)[C@H](CC(N)=O)NC(=O)[C@H](Cc1ccccc1)NC(=O)[C@H](CCCCN)NC(=O)[C@@H](N)CC(N)=O)C(=O)N[C@@H](CCCNC(=N)N)C(=O)NCC(=O)N[C@@H](Cc1ccc(O)cc1)C(=O)N[C@@H](CC(=O)O)C(=O)O — koff (ERBB2 (Homo sapiens, UniProt P04626); binding, SPR): 0.0107 s⁻¹
CNc1ccccc1C(=O)O[C@H]1C[C@H](n2cnc3c(N)ncnc32)O[C@@H]1COP(=O)(O)OP(=O)(O)O — pocket forward rate constant (Unconventional myosin-Va (Gallus gallus, UniProt Q02440, D297C/G292C/I296C/S293C/V295G); stopped-flow FRET; 10 °C, with: MgCl2 10 mM): 0.37 ± 0.29 s⁻¹
COc1ccc(S(=O)(=O)n2nc(OC(=O)c3cccc(-c4ccccc4)c3)cc2N)cc1 — protein mass shift (Genome polyprotein, NS2B-NS3 protease (dengue virus type 2, UniProt P29990); ESI-TOF MS; concentration not given; reference: DMSO control): 180 Da
O=P1(O)OC[C@H]2O[C@@H](n3cnc4cncnc43)[C@H](O)[C@@H]2OP(=O)(O)OC[C@H]2O[C@@H](n3cnc4cncnc43)[C@H](O)[C@@H]2O1 — ΔΔG binding (ydaO riboswitch wild type (Bacillus subtilis); competition gel-shift; concentration not given; reference: c-di-AMP): 5.1 kcal/mol
C[n+]1cccc2cc(/C=N/NC(=O)c3ccc4ccc5ccc(C(=O)N/N=C/c6ccc7c(ccc[n+]7C)c6)nc5c4n3)ccc21 — IC50 (T1, DNA hairpin, HEG linker; Thiazole Orange displacement, competitor, fluorescent indicator displacement; pH 7.2, KCl 100 mM): > 2500 nM
CC(C)C[C@H](NC(=O)[C@H](CC(C)C)NC(=O)[C@H](CCC(=O)O)NC(=O)[C@@H](N)CS)C(=O)O — remaining activity (PPO3 (Agaricus bisporus, UniProt C7FF04); enzyme activity, inhibitor; 12.5 µM): 83.6%
CC(=O)Oc1cc(-c2coc3cc(OC(C)=O)c(OC(C)=O)c(OC(C)=O)c3c2=O)cc(OC(C)=O)c1OC(C)=O — Hill coefficient on kcat (Ribonuclease P protein component (rnpA, Bacillus subtilis, UniProt P25814); enzyme activity, inhibitor; 37 °C, with: Fl-pre-tRNA^Asp): 0.9 ± 0.1
CC[C@H](C)[C@H](NC(=O)[C@H](CCCCN)NC(=O)[C@H](CCCCN)NC(=O)[C@@H](NC(=O)[C@H](CCC(=O)O)NC(=O)[C@H](CCC(=O)O)NC(=O)[C@H](CCC(=O)O)NC(=O)[C@H](CO)NC(=O)[C@H](C)NC(=O)[C@H](CC(=O)O)NC(=O)[C@H](CC(C)C)NC(=O)CNC(=O)[C@H](CCCNC(=N)N)NC(=O)[C@H](CC(C)C)NC(=O)[C@H](CO)NC(=O)CNC(=O)CNC(=O)CNC(=O)CCCC[C@@H]1SC[C@@H]2NC(=O)N[C@@H]21)C(C)C)C(=O)N[C@@H](CC(C)C)C(=O)N[C@@H](CC(=O)O)C(=O)N[C@@H](CCC(=O)O)C(=O)N[C@H](C(=O)N[C@H](C(=O)N[C@@H](CCCCN)C(=O)N[C@@H](CC(=O)O)C(=O)O)C(C)C)[C@@H](C)CC — Kd ratio (Fab B11 antibody (human); binding, biolayer interferometry; reference: alanine mutant over wild type): 9.1

Repeated from above:
CCc1nc2cc3ccccc3cc2cc1C(=O)N1CCC[C@H]1C(=O)N[C@@H](C/C=C\C[C@H](NC(=O)[C@@H]1CCCN1C(=O)c1cc2cc3ccccc3cc2nc1CC)C(=O)N[C@@H](CCCCN)C(=O)NCCCN)C(=O)N[C@@H](CCCCN)C(=O)NCCCN — residence time ((CAG)10 RNA; SPR): 462 s
